Experimental data collected from several papers.
Values joined by “and” are separate records of one study, mostly repeats; a detail may differ. Numbers after ± are the reported error.
B1: CFH domains 1108-1231 R1210C (Homo sapiens, UniProt P08603); sequence looked up; chain KCGPPPPIDNGDITSFPLSVYAPASSVEYQCQNLYQLEGNKRITCRNGQWSEPPKCLHPCVISREIMENYNIALRWTAKQKLYSRTGESVEFVCKRGYRLSSCSHTLRTTCWDGKLEYPTCAKR
B2: IgG L:I27A; V domains shown; VH QVQLVQSGAEVKKPGASVKVSCKASGYTFTNYGLSWVRQAPGQGLEWMGWISANNGDTNYGQEFQGRVTMTTDTSTSTAYMELRSLRSDDTAVYYCARDSSSSWARWFFDLWGRGTLVTVSS; VL SYVLTQPPSVSVAPGKTARITCGGNAIGSKLVHWYQQKPGQAPVLVIYDDGDRPSGIPERFSGSNSGNTATLTISRVEAGDEADYYCQVWDTGSDPVVFGGGTKLTVL
B3: FLT3LG 27-185 (Homo sapiens, UniProt P49771); sequence looked up; chain TQDCSFQHSPISSDFAVKIRELSDYLLQDYPVTVASNLQDEELCGGLWRLVLAQRWMERLKTVAGSKMQGLLERVNTEIHFVTKCAFQPPPSCLRFVQTNISRLLQETSEQLVALKPWITRQNFSRCLELQCQPDSSTLPPPWSPRPLEATAPTAPQPP
B4: EFR3A 721-791 (Homo sapiens, UniProt Q14156); chain SNTEEITFEALKKAIDTSGMEEQEKEKRRLVIEKFQKAPFEEIAAQCESKANLLHDRLAQILELTIRPPPS
B5: OTULIN 55-352 C129S (Homo sapiens, UniProt Q96BN8); sequence looked up; chain MYRAADEIEKEKELLIHERGASEPRLSVAPEMDIMDYCKKEWRGNTQKATCMKMGYEEVSQKFTSIRRVRGDNYSALRATLFQAMSQAVGLPPWLQDPELMLLPEKLISKYNWIKQWKLGLKFDGKNEDLVDKIKESLTLLRKKWAGLAEMRTAEARQIACDELFTNEAEEYSLYEAVKFLMLNRAIELYNDKEKGKEVPFFSVLLFARDTSNDPGQLLRNHLNQVGHTGGLEQVEMFLLAYAVRHTIQVYRLSKYNTEEFITVYPTDPPKDWPVVTLIAEDDRHYNIPVRVCEETSL
B6: NR3C1 98-420 (Homo sapiens, UniProt P04150); pyrene label; chain MGNDLGFPQQGQISLSSGETDLKLLEESIANLNRSTSVPENPKSSASTAVSAAPTEKEFPKTHSDVSSEQQHLKGQTGTNGGNVKLYTTDQSTFDILQDLEFSSGSPGKETNESPWRSDLLIDENCLLSPLAGEDDSFLLEGNSNEDCKPLILPDTKPKIKDNGDLVLSSPSNVTLPQVKTEKEDFIELCTPGVIKQEKLGTVYCQASFPGANIIGNKMSAISVHGVSTSGGQMYHYDMNTASLSQQQDQKPIFNVIPPIPVGSENWNRCQGSGDDNLTSLGTLNFPGRTVFSNGYSSPSMRPDVSSPPSSSSTATTGPPPKL

| Molecule | tested on | assay | test system | setting | how to read | measurement | value |
| --- | --- | --- | --- | --- | --- | --- | --- |
| petF ferredoxin (Synechocystis sp. PCC 6803, UniProt P27320) | narB R351Q (Synechococcus sp. PCC 7942) | UV-visible difference titration | – | – | – | Kd | 11.5 ± 3.8 µM |
| galanin | rebH (Lentzea aerocolonigenes, UniProt Q8KHZ8, A442V/K145M/M71V/N467T/N470S/S2P) | substrate, HPLC EIC | – | – | – | bromination conversion | 21.2% and 21.6% |
| B1 (CFH domains 1108-1231 R1210C) | C3 996-1303 (Homo sapiens, UniProt P01024) | SPR | – | – | – | Kd | 5.3 ± 0.2 µM |
| B2 (IgG L:I27A) | IL13 fragment (Homo sapiens) | SPR | antibody | – | – | Kd | 0.000519 µM |
| SEKHFRETEV | human SCRIB PDZ3-4 tandem (MBP fusion) | automated holdup | peptide, crude extract | concentration not given, uncorrected, unit not given | baseline: biotin control resin, higher = stronger binding | binding intensity | 0.984 |
| GSGESVNWKCCYSLTLQE (designed peptide) | ERBB2 23-652 (Homo sapiens, UniProt P04626) | ELISA | peptide | – | – | Kd | 2.7 ± 0.6 µM |
| KLLMIIHDRREAAKAEKEKMNAKWDTGENPIYKSAVTTVVNPKYEGK (ITGB1 cytoplasmic tail 752-798 FF/AA (UniProt P05556-1); sequence looked up) | Tln1 309-405 (Mus musculus, UniProt P26039) | NMR titration | – | – | – | Kd | 1280 µM |
| PUX6 fragment (Arabidopsis thaliana) | CDC48A 1-463 (Arabidopsis thaliana, UniProt P54609) | ITC | – | 10 °C | – | Kd | 11.2 ± 1.1 µM |
| B3 (FLT3LG 27-185) | Flt3 28-544 (Mus musculus, UniProt Q00342) | SPR | – | – | – | Kd | 13.8 µM |
| B4 (EFR3A 721-791) | TTC7B/FAM126A 1-308 | BLI | – | – | – | Kd | 4.1e-05 ± 2.5e-05 µM |
| GSGAGIATEV | human MAGI1-3/6 PDZ construct (MBP fusion) | automated holdup | peptide, crude extract | concentration not given, uncorrected, unit not given | baseline: biotin control resin, higher = stronger binding | binding intensity | 0.288 |
| LPDTDDRHRIEEKRKRTAETFKSIMKKSPFNGP (Rela 289-321 Y306A (Mus musculus, UniProt Q04207); sequence looked up) | NFKBIA 67-206 (Homo sapiens, UniProt P25963) | ITC | peptide | – | – | Kd | 2.6 ± 0.04 µM |
| B5 (OTULIN 55-352 C129S) | linear di-ubiquitin fragment | ITC | – | – | – | Kd | 0.83 µM |
| B6 (NR3C1 98-420) | TSG101 229-304 coiled coil, pyrene label (Homo sapiens, UniProt Q99816) | fluorescence anisotropy | – | – | – | Kd | 20 µM |

A few entries again:
| Molecule | tested on | assay | test system | setting | how to read | measurement | value |
| --- | --- | --- | --- | --- | --- | --- | --- |
| PUX6 fragment (Arabidopsis thaliana) | CDC48A 1-463 (Arabidopsis thaliana, UniProt P54609) | ITC | – | 10 °C | – | Kd | 11.2 ± 1.1 µM |
